# Measurements collected from several papers.
# Lines come from different studies, so protocols differ.
# HLA class I histocompatibility antigen, A alpha chain: HLA class I histocompatibility antigen, A alpha chain (Homo sapiens, UniProt P04439)
# NEU1: Sialidase-1 (NEU1, Homo sapiens, UniProt Q99519)
# Proteasome component C5/PSMB5 chymotrypsin-like site: Proteasome component C5/PSMB5, chymotrypsin-like site (Homo sapiens, UniProt P20618+P28074)
# UniProt P28074, sequence (whole entry, looked up): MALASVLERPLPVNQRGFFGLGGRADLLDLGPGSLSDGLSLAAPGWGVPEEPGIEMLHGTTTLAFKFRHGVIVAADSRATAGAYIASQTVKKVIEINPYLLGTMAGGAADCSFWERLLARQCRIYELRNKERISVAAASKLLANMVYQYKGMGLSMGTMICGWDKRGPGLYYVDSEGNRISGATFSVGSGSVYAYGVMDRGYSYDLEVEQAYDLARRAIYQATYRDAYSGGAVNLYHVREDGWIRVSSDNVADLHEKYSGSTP
# UniProt P20618, sequence (whole entry, looked up): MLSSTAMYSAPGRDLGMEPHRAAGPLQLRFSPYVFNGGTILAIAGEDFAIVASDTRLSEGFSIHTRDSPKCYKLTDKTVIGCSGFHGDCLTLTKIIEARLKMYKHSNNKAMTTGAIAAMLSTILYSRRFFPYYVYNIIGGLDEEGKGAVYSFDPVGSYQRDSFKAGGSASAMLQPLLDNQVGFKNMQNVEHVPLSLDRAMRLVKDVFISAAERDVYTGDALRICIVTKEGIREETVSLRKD
# USP7: Ubiquitin carboxyl-terminal hydrolase 7 (USP7, Homo sapiens, UniProt Q93009)
# UniProt Q93009, sequence (whole entry, looked up): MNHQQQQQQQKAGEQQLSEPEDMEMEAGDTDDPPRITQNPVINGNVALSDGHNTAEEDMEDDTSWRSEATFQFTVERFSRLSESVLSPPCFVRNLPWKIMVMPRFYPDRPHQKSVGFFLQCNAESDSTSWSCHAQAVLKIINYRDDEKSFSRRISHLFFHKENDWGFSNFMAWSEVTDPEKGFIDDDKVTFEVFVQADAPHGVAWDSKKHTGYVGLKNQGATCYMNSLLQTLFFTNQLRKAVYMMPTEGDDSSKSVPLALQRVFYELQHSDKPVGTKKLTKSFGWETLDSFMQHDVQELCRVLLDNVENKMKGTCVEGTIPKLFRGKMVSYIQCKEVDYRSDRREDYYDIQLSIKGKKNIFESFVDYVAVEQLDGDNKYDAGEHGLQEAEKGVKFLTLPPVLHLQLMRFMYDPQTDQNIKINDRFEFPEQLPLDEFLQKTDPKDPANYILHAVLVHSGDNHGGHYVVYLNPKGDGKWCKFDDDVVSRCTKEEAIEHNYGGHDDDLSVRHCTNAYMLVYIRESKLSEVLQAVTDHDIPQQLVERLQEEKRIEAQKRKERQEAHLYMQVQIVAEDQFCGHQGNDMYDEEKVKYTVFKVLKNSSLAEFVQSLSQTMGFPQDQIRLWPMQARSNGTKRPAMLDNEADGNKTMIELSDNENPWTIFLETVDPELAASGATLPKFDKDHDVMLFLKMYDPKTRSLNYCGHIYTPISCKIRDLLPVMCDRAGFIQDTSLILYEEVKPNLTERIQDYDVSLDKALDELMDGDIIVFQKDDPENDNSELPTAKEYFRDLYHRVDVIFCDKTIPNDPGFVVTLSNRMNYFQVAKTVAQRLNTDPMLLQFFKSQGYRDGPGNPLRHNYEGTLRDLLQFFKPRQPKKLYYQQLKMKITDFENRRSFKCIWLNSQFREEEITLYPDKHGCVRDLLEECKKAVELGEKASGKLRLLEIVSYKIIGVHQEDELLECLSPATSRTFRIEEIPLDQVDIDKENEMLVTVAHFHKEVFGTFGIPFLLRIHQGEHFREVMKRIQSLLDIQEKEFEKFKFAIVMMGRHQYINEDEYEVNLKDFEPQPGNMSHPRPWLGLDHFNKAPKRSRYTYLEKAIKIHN
# UniProt Q15139, sequence (whole entry, looked up): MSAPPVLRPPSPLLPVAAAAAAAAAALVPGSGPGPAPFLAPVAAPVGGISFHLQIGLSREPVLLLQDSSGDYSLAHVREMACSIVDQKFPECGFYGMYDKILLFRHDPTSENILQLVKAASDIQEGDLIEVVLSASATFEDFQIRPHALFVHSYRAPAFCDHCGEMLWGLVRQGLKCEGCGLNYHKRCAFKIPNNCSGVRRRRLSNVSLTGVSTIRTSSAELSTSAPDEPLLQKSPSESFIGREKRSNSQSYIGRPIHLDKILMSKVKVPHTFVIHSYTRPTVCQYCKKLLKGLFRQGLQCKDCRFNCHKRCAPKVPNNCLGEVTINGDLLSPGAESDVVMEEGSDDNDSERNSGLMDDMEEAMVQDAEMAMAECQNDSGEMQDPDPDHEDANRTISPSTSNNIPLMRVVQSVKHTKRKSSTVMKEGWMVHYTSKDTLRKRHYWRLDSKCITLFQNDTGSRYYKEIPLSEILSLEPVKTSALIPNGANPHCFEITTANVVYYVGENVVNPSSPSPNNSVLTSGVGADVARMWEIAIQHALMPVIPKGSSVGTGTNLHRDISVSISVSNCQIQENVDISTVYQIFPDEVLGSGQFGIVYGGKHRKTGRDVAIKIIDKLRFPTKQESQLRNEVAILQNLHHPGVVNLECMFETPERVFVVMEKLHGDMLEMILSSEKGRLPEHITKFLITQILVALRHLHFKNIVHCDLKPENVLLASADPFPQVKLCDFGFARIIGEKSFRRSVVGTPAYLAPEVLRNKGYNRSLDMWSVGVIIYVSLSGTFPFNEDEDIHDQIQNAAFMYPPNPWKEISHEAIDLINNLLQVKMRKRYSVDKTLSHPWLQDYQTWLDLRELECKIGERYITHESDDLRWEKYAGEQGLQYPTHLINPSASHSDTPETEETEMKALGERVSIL
# UniProt Q9UKP4, sequence (whole entry, looked up): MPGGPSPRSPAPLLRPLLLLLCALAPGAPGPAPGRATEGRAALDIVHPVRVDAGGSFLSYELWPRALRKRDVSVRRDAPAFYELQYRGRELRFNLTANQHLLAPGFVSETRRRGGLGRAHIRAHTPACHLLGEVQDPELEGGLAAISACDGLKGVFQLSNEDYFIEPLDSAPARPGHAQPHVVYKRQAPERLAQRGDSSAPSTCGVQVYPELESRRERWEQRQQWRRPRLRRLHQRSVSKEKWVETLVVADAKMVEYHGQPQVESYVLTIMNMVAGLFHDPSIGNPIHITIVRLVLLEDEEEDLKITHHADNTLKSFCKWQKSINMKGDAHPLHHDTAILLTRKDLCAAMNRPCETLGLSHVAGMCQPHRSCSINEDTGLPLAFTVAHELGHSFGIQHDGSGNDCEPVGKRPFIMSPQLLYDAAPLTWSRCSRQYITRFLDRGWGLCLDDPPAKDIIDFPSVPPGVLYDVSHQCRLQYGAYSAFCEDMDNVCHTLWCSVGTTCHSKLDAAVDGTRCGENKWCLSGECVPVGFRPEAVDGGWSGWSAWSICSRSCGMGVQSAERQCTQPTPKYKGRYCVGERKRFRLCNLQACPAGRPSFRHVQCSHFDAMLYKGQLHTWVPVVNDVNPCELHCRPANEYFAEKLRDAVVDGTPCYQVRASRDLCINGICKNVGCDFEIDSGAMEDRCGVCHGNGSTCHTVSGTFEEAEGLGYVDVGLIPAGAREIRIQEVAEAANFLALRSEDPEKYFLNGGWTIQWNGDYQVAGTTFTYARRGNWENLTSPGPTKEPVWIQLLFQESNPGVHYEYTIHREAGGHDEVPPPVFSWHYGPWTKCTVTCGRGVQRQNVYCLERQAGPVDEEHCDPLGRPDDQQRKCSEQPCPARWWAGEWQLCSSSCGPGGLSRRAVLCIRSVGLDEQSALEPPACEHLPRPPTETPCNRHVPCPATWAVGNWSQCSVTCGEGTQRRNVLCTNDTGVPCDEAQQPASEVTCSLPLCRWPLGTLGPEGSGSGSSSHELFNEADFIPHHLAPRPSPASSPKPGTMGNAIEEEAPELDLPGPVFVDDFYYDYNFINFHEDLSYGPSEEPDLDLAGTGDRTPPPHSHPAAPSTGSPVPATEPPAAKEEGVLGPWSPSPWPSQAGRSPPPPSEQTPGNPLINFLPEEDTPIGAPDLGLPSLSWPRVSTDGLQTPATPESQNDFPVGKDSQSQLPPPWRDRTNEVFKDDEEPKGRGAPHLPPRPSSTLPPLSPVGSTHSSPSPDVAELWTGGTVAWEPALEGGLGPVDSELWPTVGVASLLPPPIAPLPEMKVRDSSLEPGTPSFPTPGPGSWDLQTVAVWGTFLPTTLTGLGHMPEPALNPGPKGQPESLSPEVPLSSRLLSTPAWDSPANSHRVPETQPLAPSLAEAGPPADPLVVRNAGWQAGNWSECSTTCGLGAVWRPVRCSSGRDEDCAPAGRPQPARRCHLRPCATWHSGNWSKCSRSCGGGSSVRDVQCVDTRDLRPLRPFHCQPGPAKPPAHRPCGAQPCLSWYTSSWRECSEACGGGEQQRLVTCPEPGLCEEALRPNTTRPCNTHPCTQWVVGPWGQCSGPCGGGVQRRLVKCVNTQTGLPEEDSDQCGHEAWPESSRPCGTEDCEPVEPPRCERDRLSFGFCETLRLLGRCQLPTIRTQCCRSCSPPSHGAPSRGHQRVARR
# UniProt P52895, sequence (whole entry, looked up): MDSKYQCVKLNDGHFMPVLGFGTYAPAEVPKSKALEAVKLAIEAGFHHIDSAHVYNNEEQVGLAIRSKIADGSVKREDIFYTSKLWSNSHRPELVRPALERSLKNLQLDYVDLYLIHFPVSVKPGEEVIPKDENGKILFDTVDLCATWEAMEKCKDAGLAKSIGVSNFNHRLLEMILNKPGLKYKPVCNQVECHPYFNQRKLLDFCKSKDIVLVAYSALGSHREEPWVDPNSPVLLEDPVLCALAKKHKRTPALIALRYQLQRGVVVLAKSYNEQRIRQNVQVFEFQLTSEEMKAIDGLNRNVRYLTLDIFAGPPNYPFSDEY
# UniProt P33535, sequence (whole entry, looked up): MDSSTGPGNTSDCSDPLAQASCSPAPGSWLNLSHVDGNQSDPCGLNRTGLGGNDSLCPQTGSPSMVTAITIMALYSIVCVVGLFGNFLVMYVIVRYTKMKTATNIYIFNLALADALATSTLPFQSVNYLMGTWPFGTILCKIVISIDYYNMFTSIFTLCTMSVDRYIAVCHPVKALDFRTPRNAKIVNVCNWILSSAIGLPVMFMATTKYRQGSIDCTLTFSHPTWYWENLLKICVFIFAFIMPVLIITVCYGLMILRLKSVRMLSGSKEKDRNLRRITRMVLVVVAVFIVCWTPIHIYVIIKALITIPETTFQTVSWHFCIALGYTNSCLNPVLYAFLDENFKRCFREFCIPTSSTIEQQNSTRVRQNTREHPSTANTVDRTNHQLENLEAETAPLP
SMILES,target,assay,conditions,endpoint,result
CC[C@H](C)[C@H](NC(=O)[C@@H]1CCCN1C(=O)[C@H](CO)NC(=O)[C@H](CCSC)NC(=O)[C@H](CCC(N)=O)NC(=O)[C@@H](N)CCCCN)C(=O)N[C@@H](Cc1c[nH]c2ccccc12)C(=O)N[C@H](C(=O)N[C@@H](Cc1ccc(O)cc1)C(=O)O)[C@@H](C)O,"HLA class I histocompatibility antigen, A alpha chain",cell-free assay,,IC50,669 nM
Cc1cn([C@H]2[C@H]([C@H](O)[C@H](O)CO)OC(C(=O)O)=C[C@@H]2O)nn1,NEU1,"enzyme activity, inhibitor",,IC50,1500 nM
CC(C)C[C@H](NC(=O)[C@@H](N)Cc1c[nH]cn1)C(=O)N[C@@H](Cc1ccccc1)C(=O)N1CCC[C@H]1C(=O)N[C@@H](CCCNC(=N)N)C(=O)N[C@H](C(=O)N[C@@H](Cc1c[nH]cn1)C(=O)N[C@@H](Cc1ccc(O)cc1)C(=O)N[C@@H](Cc1ccccc1)C(=O)O)[C@@H](C)O,"HLA class I histocompatibility antigen, A alpha chain",cell-free assay,,IC50,1670 nM
O=C(N1CCC2(CC1)C[C@H](CN1CCCCS1(=O)=O)CCO2)C1(c2ccccc2)CCCC1,"ATP-dependent RNA helicase DDX1 (Homo sapiens, UniProt Q92499)","ATPase activity, inhibitor",,IC50,> 50000 nM
CC(C)Cc1cn([C@H]2[C@H]([C@H](O)[C@H](O)CO)OC(C(=O)O)=C[C@@H]2O)nn1,NEU1,"enzyme activity, inhibitor",,IC50,70000 nM
CC[C@H](C)[C@H](NC(=O)[C@H](CCCNC(=N)N)NC(=O)[C@H](CC(N)=O)NC(=O)[C@H](Cc1ccccc1)NC(=O)[C@@H](NC(=O)[C@@H](N)Cc1ccc(O)cc1)[C@@H](C)O)C(=O)N[C@@H](Cc1c[nH]cn1)C(=O)N[C@@H](CCC(=O)O)C(=O)N[C@@H](Cc1ccccc1)C(=O)O,"HLA class I histocompatibility antigen, A alpha chain",cell-free assay,,IC50,48600 nM
CCCCCCN[C@H]1[C@H]([C@H](O)[C@H](O)CO)OC(C(=O)O)=C[C@@H]1O,NEU1,"enzyme activity, inhibitor",,IC50,95000 nM
Oc1cccc(CCN(CCc2ccccc2)CC2CCC2)c1,"Oprm1 (Rattus norvegicus, UniProt P33535)","β-arrestin recruitment, antagonist",,IC50,2800 nM
CCCC(=O)NCCCN1CCc2c([nH]c3ccc(Cl)cc23)C1,"DAT (Drosophila melanogaster, UniProt Q7K4Y6, del162-202/L415A/V74A)","transporter uptake, inhibitor",,IC50,120000 nM
O=C(O)C(C(F)(F)F)C(F)(F)F,"AKR1C2 (Homo sapiens, UniProt P52895)","enzyme activity, inhibitor, fluorescence",,IC50,> 50000 nM
CC(C)C[C@H](NC(=O)OCc1ccccc1)C(=O)N[C@@H](Cc1c[nH]c2ccccc12)C(=O)N[C@@H](CC(C)C)C(=O)C(=O)Nc1cccc(S(C)(=O)=O)c1,Proteasome component C5/PSMB5 chymotrypsin-like site,"enzyme activity in cells, inhibitor",,IC50,56.2 nM
CCC(C(=O)Nc1cc(NC2CCOCC2)ccc1C)n1cc(Br)cc2nc(SCc3ccc(F)cc3)nc1-2 (stereo not shown),"Caspase-3 (CASP3, Homo sapiens, UniProt P42574)","enzyme activity, inhibitor",,IC50,> 100000 nM
CC(C)CCN[C@H]1[C@H]([C@H](O)[C@H](O)CO)OC(C(=O)O)=C[C@@H]1O,NEU1,"enzyme activity, inhibitor",,IC50,> 500000 nM
CSCC[C@H](NC(=O)[C@@H](NC(=O)[C@H](CC(C)C)NC(=O)[C@@H](NC(=O)[C@H](CCCCN)NC(=O)[C@H](CC(N)=O)NC(=O)[C@H](Cc1ccc(O)cc1)NC(=O)[C@H](CCSC)NC(=O)[C@@H](N)CCCNC(=N)N)[C@@H](C)O)[C@@H](C)O)C(=O)O,"HLA class I histocompatibility antigen, A alpha chain",cell-free assay,,IC50,48 nM
Cn1nccc1[C@]1(CNC(=O)c2ccc(F)c(F)c2-c2ccc(C(F)(F)F)cc2)NC(=O)NC1=O,"A disintegrin and metalloproteinase with thrombospondin motifs 7 (Homo sapiens, UniProt Q9UKP4)","enzyme activity, inhibitor, FRET",,IC50,5.78 nM
CCC(C(=O)Nc1cc(NC2COC2)ccc1C)n1cc(Br)cc2nc(SCc3ccc(F)cc3)nc1-2 (stereo not shown),USP7,"enzyme activity, inhibitor",,IC50,> 100000 nM
CC(C)C[C@H](NC(=O)OCc1ccccc1)C(=O)N[C@@H](CC(C)C)C(=O)N[C@@H](CC(C)C)C(=O)C(=O)Nc1ccccc1,Proteasome component C5/PSMB5 chymotrypsin-like site,"enzyme activity in cells, inhibitor",,IC50,33.9 nM
CCC(C(=O)Nc1cc(NC2CNC2)ccc1C)n1cccc2nc(SCc3ccc(F)cc3)nc1-2 (stereo not shown),USP7,"enzyme activity, inhibitor",,IC50,> 100000 nM
[2H]c1c([2H])c([C@]2([2H])CCCN2C(=O)C(C)(C)Oc2ccc3cn[nH]c3c2)c([2H])c([2H])c1C([2H])([2H])[2H],"PRKD1 (Homo sapiens, UniProt Q15139)","binding, competition with immobilised ligand",1 µM,remaining binding,77%
O=C(C[C@@H](C(F)F)n1ccc(F)n1)N1CCC(O)(Cn2cnc3c(cnn3-c3ccc(F)cc3)c2=O)CC1,USP7,"enzyme activity, inhibitor",,IC50,110 nM
CC(C)[C@H](NC(=O)[C@H](Cc1c[nH]cn1)NC(=O)[C@@H]1CCCN1C(=O)[C@H](Cc1ccccc1)NC(=O)[C@H](C)NC(=O)[C@@H](N)Cc1c[nH]cn1)C(=O)N[C@H](C(=O)N[C@H](C(=O)N[C@@H](Cc1ccccc1)C(=O)O)[C@@H](C)O)C(C)C,"HLA class I histocompatibility antigen, A alpha chain",cell-free assay,,IC50,13600 nM
CC(=O)N(C)[C@H]1[C@H]([C@H](O)[C@H](O)CO)OC(C(=O)O)=C[C@@H]1O,NEU1,"enzyme activity, inhibitor",,IC50,> 500000 nM
CSCC[C@H](NC(=O)[C@H](CC(C)C)NC(=O)[C@@H](N)CCCNC(=N)N)C(=O)N[C@@H](CC(=O)O)C(=O)N[C@@H](CCCCN)C(=O)N1CCC[C@H]1C(=O)N[C@@H](Cc1c[nH]cn1)C(=O)N[C@@H](CO)C(=O)N[C@@H](Cc1ccc(O)cc1)C(=O)O,"HLA class I histocompatibility antigen, A alpha chain",cell-free assay,,IC50,41 nM
COc1ccc(C[C@H](NC(=O)[C@H](C)NC(=O)c2ccc(-c3ccccc3)cc2)C(=O)N[C@@H](CC(C)C)C(=O)C(=O)Nc2ccccc2)cc1,Proteasome component C5/PSMB5 chymotrypsin-like site,"enzyme activity in cells, inhibitor",,IC50,126 nM
CC[C@H](C)[C@H](NC(=O)[C@@H](NC(=O)[C@H](CCCCN)NC(=O)[C@H](Cc1c[nH]cn1)NC(=O)[C@H](Cc1ccc(O)cc1)NC(=O)[C@H](CCSC)NC(=O)[C@@H](N)CCCNC(=N)N)C(C)C)C(=O)N[C@H](C(=O)N[C@@H](Cc1ccccc1)C(=O)O)[C@@H](C)O,"HLA class I histocompatibility antigen, A alpha chain",cell-free assay,,IC50,29 nM
CCC(C(=O)Nc1cc(NC2CCNCC2)ccc1C)n1cc(Cl)cc2nc(SCc3ccc(F)cc3)nc1-2 (stereo not shown),"Serine protease 1 (PRSS1, Homo sapiens, UniProt P07477)","enzyme activity, inhibitor",,IC50,> 100000 nM
CC[C@H](C)[C@H](NC(=O)[C@@H](N)CCCNC(=N)N)C(=O)N[C@@H](Cc1ccccc1)C(=O)NCC(=O)N[C@@H](Cc1c[nH]cn1)C(=O)N1CCC[C@H]1C(=O)N[C@@H](Cc1c[nH]cn1)C(=O)N[C@@H](CC(C)C)C(=O)N[C@@H](Cc1ccccc1)C(=O)O,"HLA class I histocompatibility antigen, A alpha chain",cell-free assay,,IC50,363 nM
CC(C)[C@H](N)C(=O)N1CCC[C@H]1C(=O)N[C@H](C(=O)N1CCC[C@H]1C(=O)N[C@@H](CC(=O)O)C(=O)O)C(C)C,"DPP4 (Homo sapiens, UniProt P27487)","enzyme activity, inhibitor, absorbance",pH 8,IC50,74500 nM
